Measured values gathered from unrelated publications.
Numbered parts are unrelated; each lists some results of a single study. Positions count from the first letter of the parent shown.
Sequence of UniProt Q9FKM7 (whole entry, looked up): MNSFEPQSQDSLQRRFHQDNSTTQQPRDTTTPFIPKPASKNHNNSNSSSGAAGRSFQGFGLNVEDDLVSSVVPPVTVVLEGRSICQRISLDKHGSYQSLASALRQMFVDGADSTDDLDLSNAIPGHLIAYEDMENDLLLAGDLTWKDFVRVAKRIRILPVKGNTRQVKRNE
Sequence of UniProt Q9C966 (whole entry, looked up): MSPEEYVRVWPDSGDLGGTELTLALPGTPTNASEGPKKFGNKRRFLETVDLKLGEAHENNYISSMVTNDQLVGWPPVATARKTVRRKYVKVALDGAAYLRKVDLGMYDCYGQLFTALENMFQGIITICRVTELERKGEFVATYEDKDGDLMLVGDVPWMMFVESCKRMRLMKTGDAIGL
Sequence of UniProt Q9ZPY6 (whole entry, looked up): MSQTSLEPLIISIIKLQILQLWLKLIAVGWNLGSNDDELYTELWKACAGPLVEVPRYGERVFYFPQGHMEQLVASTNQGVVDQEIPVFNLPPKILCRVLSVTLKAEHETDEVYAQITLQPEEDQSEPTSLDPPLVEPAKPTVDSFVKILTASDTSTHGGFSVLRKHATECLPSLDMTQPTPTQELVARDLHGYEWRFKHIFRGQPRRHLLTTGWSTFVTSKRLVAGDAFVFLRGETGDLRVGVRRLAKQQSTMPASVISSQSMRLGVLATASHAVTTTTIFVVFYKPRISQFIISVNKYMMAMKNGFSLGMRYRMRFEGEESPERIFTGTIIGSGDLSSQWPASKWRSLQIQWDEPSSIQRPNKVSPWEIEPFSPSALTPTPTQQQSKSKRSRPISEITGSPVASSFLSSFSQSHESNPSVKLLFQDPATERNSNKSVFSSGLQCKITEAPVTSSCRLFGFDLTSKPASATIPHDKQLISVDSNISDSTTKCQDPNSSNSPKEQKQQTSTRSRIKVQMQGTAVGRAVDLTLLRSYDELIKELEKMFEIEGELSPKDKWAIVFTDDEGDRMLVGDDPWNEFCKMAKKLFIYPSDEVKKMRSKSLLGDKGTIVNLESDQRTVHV
Sequence of UniProt Q9XFM0 (whole entry, looked up): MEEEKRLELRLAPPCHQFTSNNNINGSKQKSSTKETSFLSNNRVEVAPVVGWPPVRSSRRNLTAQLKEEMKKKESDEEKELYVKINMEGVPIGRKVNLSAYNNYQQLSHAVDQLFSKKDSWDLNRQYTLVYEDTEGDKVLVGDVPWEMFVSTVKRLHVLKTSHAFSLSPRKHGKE
Sequence of UniProt Q9ZTX8 (whole entry, looked up): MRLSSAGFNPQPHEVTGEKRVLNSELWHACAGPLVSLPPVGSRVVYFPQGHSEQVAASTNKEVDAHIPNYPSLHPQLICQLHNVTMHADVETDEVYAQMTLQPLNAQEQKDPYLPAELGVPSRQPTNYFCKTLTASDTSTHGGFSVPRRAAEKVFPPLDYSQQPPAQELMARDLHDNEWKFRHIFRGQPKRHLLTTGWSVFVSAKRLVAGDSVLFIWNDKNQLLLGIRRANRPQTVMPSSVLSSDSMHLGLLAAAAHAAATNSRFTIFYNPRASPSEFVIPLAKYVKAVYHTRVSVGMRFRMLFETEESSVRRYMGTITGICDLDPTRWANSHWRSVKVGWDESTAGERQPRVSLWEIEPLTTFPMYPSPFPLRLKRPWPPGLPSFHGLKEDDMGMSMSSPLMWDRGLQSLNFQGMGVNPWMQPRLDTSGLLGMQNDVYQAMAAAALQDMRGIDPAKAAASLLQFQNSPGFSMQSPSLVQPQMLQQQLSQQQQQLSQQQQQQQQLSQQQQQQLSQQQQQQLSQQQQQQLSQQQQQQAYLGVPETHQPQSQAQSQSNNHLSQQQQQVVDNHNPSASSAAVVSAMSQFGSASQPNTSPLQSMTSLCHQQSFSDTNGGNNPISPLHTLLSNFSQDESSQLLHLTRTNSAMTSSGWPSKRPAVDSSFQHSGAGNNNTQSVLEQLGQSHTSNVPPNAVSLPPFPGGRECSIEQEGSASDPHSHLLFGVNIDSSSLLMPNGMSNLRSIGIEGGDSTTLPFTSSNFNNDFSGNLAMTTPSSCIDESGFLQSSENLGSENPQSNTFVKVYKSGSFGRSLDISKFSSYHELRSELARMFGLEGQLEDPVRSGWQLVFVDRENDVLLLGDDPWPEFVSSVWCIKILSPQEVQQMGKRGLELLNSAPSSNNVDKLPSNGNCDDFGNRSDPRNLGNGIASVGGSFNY

Series 1 — technique: DHFR PCA, deep sequencing; medium: yeast; together with: (+)-ABA 17 µM; baseline: wild-type fitted maximum; reading: higher = stronger binding
Target: ABI1, truncated, D143A, DHFR fusion (Arabidopsis thaliana)
Setting: methotrexate growth selection, single substitutions
Starting sequence: PYL1, truncated, DHFR fusion (Arabidopsis thaliana); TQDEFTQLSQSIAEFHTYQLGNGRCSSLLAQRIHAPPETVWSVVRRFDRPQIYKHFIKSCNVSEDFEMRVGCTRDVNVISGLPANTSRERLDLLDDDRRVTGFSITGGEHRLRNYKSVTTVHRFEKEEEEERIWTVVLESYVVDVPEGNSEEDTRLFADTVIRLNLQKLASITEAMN
For `E64G`, “relative binding score” read 82.3%.
`V62I` — result for “relative binding score”: 74.5%.
Under “relative binding score”, `Q31G` is recorded as 6.13%.
`N114D`: “relative binding score” 50.8%.
Under “relative binding score”, `A84H` is recorded as 27.2%.
`W41I` — result for “relative binding score”: -23.6%.
`E128W`: “relative binding score” 76.6%.
For `V43C`, “relative binding score” read 47%.
For `D95T`, “relative binding score” read -3.38%.
For `W41N`, “relative binding score” read 9.19%.
`G107V` — result for “relative binding score”: -5.59%.
`D95C`: “relative binding score” 53.5%.
`R132D` — result for “relative binding score”: 113%.
`V121Q`: “relative binding score” 3.04%.
`T39H`: “relative binding score” 76.8%.
Under “relative binding score”, `V62K` is recorded as 13.1%.
For `T154G`, “relative binding score” read -4.61%.
For `V40C`, “relative binding score” read 12.8%.

Series 2 — technique: universal PBM; form: double-stranded DNA, one strand shown; medium: in vitro; concentration: not given; reading: higher = stronger binding
Target: Sal-like protein 4, full length isoform B (SALL4, Homo sapiens, UniProt Q9UJQ4-2, residues 1-616)
Setting: 8-mer, flanks averaged, mean of replicates
The E-score of `GTTCACTA` is reported as 0.0544.
For `AAGCCCAT`, the E-score was -0.094.
With `CAATCCTA` the E-score was -0.0059.
For `GCTGACTA`, the E-score was -0.139.
`TAGGAAAA` gave an E-score of 0.219.
`CTAGCTGA` gave an E-score of -0.0874.
With `GACCTCCA` the E-score was -0.208.
With `TCCAGTCA` the E-score was -0.0933.
`CCTGCCAC` gave an E-score of -0.226.
The E-score of `AAGATGTA` is reported as 0.205.
`GTCATGAC` has an E-score of 0.0729.
`CCCTGCCG` gave an E-score of -0.335.
With `ACCCACAG` the E-score was -0.104.
`CCTGTCCA` gave an E-score of -0.201.
`CTTAAGAC` has an E-score of 0.0393.
For `GGTTGCAA`, the E-score was -0.0355.
`GACTACTC` gave an E-score of -0.127.
`AGAGACAA` has an E-score of 0.101.
`GTACCAAC` has an E-score of -0.0595.
The E-score of `CAGGCAAA` is reported as 0.0753.
The E-score of `CCAATACC` is reported as -0.106.
The E-score of `CTTTCATC` is reported as -0.0495.
`CTAGATGA` gave an E-score of 0.0721.
For `ACCTGTTG`, the E-score was 0.0554.

Series 3 — target: CCND1, cyclin fold, Cln2 fusion (human); technique: yeast growth competition, sequencing; medium: yeast; setting: weak parent motif; baseline: not given; reading: higher = stronger binding
Starting sequence: CDKN1B docking peptide (human); PSACRNLFGPVDH; partner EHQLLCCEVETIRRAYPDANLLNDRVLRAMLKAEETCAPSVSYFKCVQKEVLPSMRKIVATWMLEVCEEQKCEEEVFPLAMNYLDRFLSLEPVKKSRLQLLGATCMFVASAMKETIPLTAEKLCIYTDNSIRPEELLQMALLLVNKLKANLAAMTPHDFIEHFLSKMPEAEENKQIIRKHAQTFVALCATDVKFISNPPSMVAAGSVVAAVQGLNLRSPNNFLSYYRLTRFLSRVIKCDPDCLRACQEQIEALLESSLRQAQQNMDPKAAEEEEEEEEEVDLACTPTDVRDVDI
`PSKCRNLFGPVDH [A3K]` — result for “normalised enrichment score”: -0.154.
For `PSACRNLCGPVDH [F8C]`, “normalised enrichment score” read 0.13.
Under “normalised enrichment score”, `PSACRALFGPVDH [N6A]` is recorded as 0.978.
For `PSACRNLFGPVDE [H13E]`, “normalised enrichment score” read 1.06.
Under “normalised enrichment score”, `PSACRNLFGTVDH [P10T]` is recorded as 0.863.
`PSACRKLFGPVDH [N6K]` — result for “normalised enrichment score”: 1.42.
For `PSACMNLFGPVDH [R5M]`, “normalised enrichment score” read 0.672.
For `PSACWNLFGPVDH [R5W]`, “normalised enrichment score” read 0.185.
`PKACRNLFGPVDH [S2K]` — result for “normalised enrichment score”: 0.866.
For `PSACRNLFGPQDH [V11Q]`, “normalised enrichment score” read 0.274.
`PHACRNLFGPVDH [S2H]` — result for “normalised enrichment score”: 0.312.
Under “normalised enrichment score”, `PSACRCLFGPVDH [N6C]` is recorded as 1.75.
Under “normalised enrichment score”, `PSACRNLFGPVDY [H13Y]` is recorded as 0.734.
`PSAWRNLFGPVDH [C4W]`: “normalised enrichment score” 0.497.
`PSACRNLFGPMDH [V11M]` — result for “normalised enrichment score”: 0.634.
`PSACRNLQGPVDH [F8Q]`: “normalised enrichment score” 0.336.
`PSACRILFGPVDH [N6I]`: “normalised enrichment score” 1.78.
`PSACYNLFGPVDH [R5Y]` — result for “normalised enrichment score”: 0.626.
For `PSAERNLFGPVDH [C4E]`, “normalised enrichment score” read 0.302.
`PSHCRNLFGPVDH [A3H]`: “normalised enrichment score” 0.55.
`PSACRNLFGPRDH [V11R]` — result for “normalised enrichment score”: 0.146.
For `PSACRNLFGPPDH [V11P]`, “normalised enrichment score” read 1.17.
For `PSACRNIFGPVDH [L7I]`, “normalised enrichment score” read 0.828.
Under “normalised enrichment score”, `PSALRNLFGPVDH [C4L]` is recorded as 0.872.
Under “normalised enrichment score”, `PIACRNLFGPVDH [S2I]` is recorded as 0.782.

Series 4 — Sequence: B1 (IAA14); technique: two-hybrid; baseline: out of 4 tests; reading: higher = firmer interaction
B1: IAA14 (Arabidopsis thaliana, UniProt Q38832); chain MNLKETELCLGLPGGTETVESPAKSGVGNKRGFSETVDLKLNLQSNKQGHVDLNTNGAPKEKTFLKDPSKPPAKAQVVGWPPVRNYRKNVMANQKSGEAEEAMSSGGGTVAFVKVSMDGAPYLRKVDLKMYTSYKDLSDALAKMFSSFTMGSYGAQGMIDFMNESKVMDLLNSSEYVPSYEDKDGDWMLVGDVPWPMFVESCKRLRIMKGSEAIGLAPRAMEKFKNRS
It gave 1 for positive tests (ARF6 790-935 (Arabidopsis thaliana, UniProt Q9ZTX8)).
The positive tests was 1 (IAA15 (Arabidopsis thaliana, UniProt Q9C966)).
For IAA28 (Arabidopsis thaliana, UniProt Q9XFM0): positive tests read 3.
For ARF11 500-622 (Arabidopsis thaliana, UniProt Q9ZPY6): positive tests read 1.
IAA33 (Arabidopsis thaliana, UniProt Q9FKM7) — positive tests: 2.

Series 5 — target: CREB5, bZIP domain (human); technique: DHFR protein complementation; medium: yeast; baseline: wild-type JUN-FOS pair; reading: higher = stronger binding
Setting: single substitutions, most at no-binding floor
Starting sequence: JUN, bZIP domain (human); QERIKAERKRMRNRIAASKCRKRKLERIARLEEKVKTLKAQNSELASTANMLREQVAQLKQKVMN; partner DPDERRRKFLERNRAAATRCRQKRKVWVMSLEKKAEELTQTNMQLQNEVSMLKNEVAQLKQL
The binding fitness of `L45Y` is reported as -1.23 natural log.
`Q41R` has a binding fitness of -0.399 natural log.
`R30Q` gave a binding fitness of -0.144 natural log.
The binding fitness of `A40M` is reported as -0.41 natural log.
`A40F` gave a binding fitness of -0.466 natural log.
`K39V` has a binding fitness of -0.326 natural log.
The binding fitness of `A29C` is reported as -0.478 natural log.
`R53F` has a binding fitness of -1.32 natural log.
For `Q58C`, the binding fitness was -0.33 natural log.
For `T48I`, the binding fitness was -0.34 natural log.
`Q58P` gave a binding fitness of -1.22 natural log.
The binding fitness of `E32N` is reported as -0.653 natural log.
For `Q55D`, the binding fitness was -0.878 natural log.
For `V35K`, the binding fitness was -1.38 natural log.
`Q58G` gave a binding fitness of -0.463 natural log.
`A49S` gave a binding fitness of -0.86 natural log.
With `A29F` the binding fitness was -0.26 natural log.
The binding fitness of `V56A` is reported as -0.527 natural log.
For `T48R`, the binding fitness was -0.368 natural log.
With `K39W` the binding fitness was -0.758 natural log.
`E33W` has a binding fitness of -0.609 natural log.
`T37C` has a binding fitness of -0.242 natural log.
The binding fitness of `Q58V` is reported as -0.354 natural log.
